Results from different studies.
Every numbered part comes from another study and shows a few of its results, in no order.

Sample 1 — technique: protein binding microarray; molecule type: double-stranded DNA, one strand shown; matrix: in vitro; concentration: not given; relative to: not given; direction: higher = stronger binding; quantity: E-score
Target: Histone acetyltransferase KAT6A, winged helix 1, GST fusion (KAT6A, Homo sapiens, UniProt Q92794, residues 1-85)
Notes: 8-mer, flanks averaged, mean of 2 arrays, mostly near background
Residues (chain): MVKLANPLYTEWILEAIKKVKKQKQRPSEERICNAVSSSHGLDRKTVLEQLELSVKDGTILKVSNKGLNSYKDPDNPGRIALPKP
CTGGAACA: -0.225
CTGAGGCA: -0.163
AGTTGTCC: -0.103
TGCAAGAA: -0.0807
CTCCCCCA: -0.0419
CCACCCCC: -0.0195
CAAGCCCG: 0.182
CTAAAGAA: -0.00064
CTAGTCCA: -0.15
GAATTTGC: -0.123
ACTGCGCA: 0.281
ACCGCCGC: 0.435
GCTATATA: 0.0191
ATCGGACC: 0.0844
AGCAGGCT: -0.0623
TACTTGCA: -0.264

Sample 2 — technique: RNA Bind-n-Seq; molecule type: RNA; matrix: in vitro; concentration: 365 nM; relative to: no-protein control; direction: higher = stronger binding; quantity: RBNS enrichment (R)
Target: RNA binding protein fox-1 homolog 2, RRM domain, GST-SBP tag (RBFOX2, Homo sapiens, UniProt O43251-10, residues 100-194)
Notes: natural RNA segment, single round, ends assumed
All sequences stand within: GGGAGUUCUACAGUCCGACGAUC … UGGAAUUCUCGGGUGCCAA
Residues (chain): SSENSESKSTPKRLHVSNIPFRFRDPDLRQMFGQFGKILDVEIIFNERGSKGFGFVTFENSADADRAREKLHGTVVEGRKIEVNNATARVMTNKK
UCCAGGAGCUAUGGGGUUCAUCCAGGCAUGAAGGCUAAUCCACUCUGAGUAAAGUGUCAGUUGCACAGCUCCGUCCUCUUCUGUCUUGCACUGUGGGUGGCACUAUUUAU: 4.1
UAUGAAAACAAAUCCACAUUCAUUAUUUCACAUUUGUCUAAGAGGUUAAGUAUCUGAAGGGAGGGUAGUGUAGAUAGCAAAUGACAGAGACAGUACACACCUAGUGUAUU: 0.404
CCCAAAUGCCUAACAGUGCAGUCAUUUCUCAAUAAAUACAUUUUAAAUAAAUGAACAAAUUCUGCCGAAACUCAGUUCUGAGUCUGUUUAACCGAAUUCAUUCAAAACGU: 0.66
UGAAGACAAAAGAUGUUUUUAUUUUAGACCCAGAAGAGAGGAGUUUGCUCUGAAUUUGUAAAUAAGUCUUCCCCAUUCCUCAUACUCGAGCCUCUCCUCUCUGGUUGCCU: 0.422
UGAACCAGGUUUUUCCUUCUGAUUUUCCCUUUUCAACAUUCCUUACCAGUCACCAAAGUUUCCUGUUAUAAUUUCUUUUAGCAGACAAGUUAUAAGUCAGAUUUAAUUAG: 0.338
CUGACAAAUUAUUGAUUAAUAAGAACUUGAAUUUCUGGAAGAUUCUUACUGUUAACCAAAUUUUGAGCAAGGAGUCUCAAAGGUAAUUCUGAACCAGAAUUACAUGUUAA: 0.346
AUGACAUGGUUAAUCUGGAACUUACGUUCUUAUACCAAUAAAAGGUACCUCAAUACAUGUUCUUUCAUUUCUGUUUUGUUUUUUUUUUUUUAAUUUAAUGUAUUAAAGCA: 0.874
UUUGACUCCCUGACUUCAAGCCAGGGUUGUGCCUUACUGUCCCUUUUCUGGGCCUCAUUCUGCCAAAGCUGGACCAAGGUUCCAUCUUUCUAAGCUCCCUAGCUCAGGCC: 0.258
CAGAACGCCUGUGUUUACAUUGUUUUUAUGGAACUAGCAGAAUAAAACAUCUAUUUUAAAAAUGAAAGCCAUUGUUUCUCUAAUUUAUCUGACAAAGUGAGCAGCUUAAA: 0.436
GUACUGUACCAGAAAACUGAGGGUCCCAGUUCUGGUCCCACCACCUUCCAAGUGUUUGCCAUGUGGCAGGCUUUGUUCUGGCUCAGUUUCCAAUUAGAAAGUGGAAAUCU: 0.32
GGGGACAUUAGACUGAAAACUGGGACAACCCCCUUCCUUAUUUUAUAGAGACUAGGAGUUAAGGGGCCUGCCUAAGAUUGCAGUGAUAAAGAACUGAACCCUAAAUCAGC: 0.336
UGUCUGCUGUGUUUUCUUACGAAAAGAGUUUCGUUCUGCCAGUGCUGUGAGUUGGGAAUUCCUGCGUGGCGACUUUCUCUGAGGCCCACAGAGAAUCAGGUAACAUUGCA: 2.44

Sample 3 — technique: universal PBM; molecule type: double-stranded DNA, one strand shown; matrix: in vitro; concentration: 600 nM; direction: higher = stronger binding; quantity: E-score
Target: Sal-like protein 4, full length isoform A (SALL4, Homo sapiens, UniProt Q9UJQ4, residues 1-1053)
Chain of UniProt Q9UJQ4 (whole entry, looked up): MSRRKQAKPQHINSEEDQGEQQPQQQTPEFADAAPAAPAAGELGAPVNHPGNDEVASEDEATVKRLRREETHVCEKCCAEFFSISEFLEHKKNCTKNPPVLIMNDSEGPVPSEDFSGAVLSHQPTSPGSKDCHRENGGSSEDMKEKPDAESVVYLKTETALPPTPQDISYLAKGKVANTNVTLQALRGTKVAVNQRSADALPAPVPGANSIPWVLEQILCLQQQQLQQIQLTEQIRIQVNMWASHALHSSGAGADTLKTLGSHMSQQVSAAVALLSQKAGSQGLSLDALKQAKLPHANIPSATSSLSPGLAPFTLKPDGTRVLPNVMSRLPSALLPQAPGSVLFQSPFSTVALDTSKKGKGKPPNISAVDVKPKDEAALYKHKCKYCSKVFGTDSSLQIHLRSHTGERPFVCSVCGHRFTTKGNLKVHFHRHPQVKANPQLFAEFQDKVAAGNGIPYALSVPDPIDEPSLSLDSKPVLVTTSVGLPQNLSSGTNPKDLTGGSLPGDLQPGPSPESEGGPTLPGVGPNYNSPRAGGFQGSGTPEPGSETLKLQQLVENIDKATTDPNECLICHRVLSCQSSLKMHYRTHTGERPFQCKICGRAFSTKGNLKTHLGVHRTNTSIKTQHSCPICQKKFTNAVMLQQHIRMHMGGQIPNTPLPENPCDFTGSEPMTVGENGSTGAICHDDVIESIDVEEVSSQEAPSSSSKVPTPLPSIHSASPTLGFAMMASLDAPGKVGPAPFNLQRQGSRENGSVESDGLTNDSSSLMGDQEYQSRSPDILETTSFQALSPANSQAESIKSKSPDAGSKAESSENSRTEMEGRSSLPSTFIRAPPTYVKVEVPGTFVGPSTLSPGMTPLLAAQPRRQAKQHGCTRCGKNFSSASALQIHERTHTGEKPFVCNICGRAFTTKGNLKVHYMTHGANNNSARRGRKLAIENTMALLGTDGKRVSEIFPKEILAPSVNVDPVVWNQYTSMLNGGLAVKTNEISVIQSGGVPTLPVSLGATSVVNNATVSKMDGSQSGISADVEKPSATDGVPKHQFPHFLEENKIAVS
Notes: 8-mer, flanks averaged, mean of replicates
CGCTGGAG: -0.207
GCAAGCGC: -0.144
CCCGACAC: -0.335
ACGTCCAG: -0.2
CGCAAAAA: 0.181
CAGATTAA: 0.192
ACTAAAGC: 0.074
CCAGACCG: -0.306
GTGGTTAA: 0.0314
CGCATCTC: -0.117
CGGCTAGC: -0.32
ACATGGCT: -0.0136
GGGGTCAA: -0.0736
CCTGTACC: -0.242
CCTCAGGC: -0.289
ACGTACAT: 0.138

Sample 4 — technique: RNA Bind-n-Seq; molecule type: RNA; matrix: in vitro; concentration: not given; notes: RNA with constant flanks, ends assumed; relative to: input RNA pool; direction: higher = stronger binding; quantity: bound/input enrichment
Target: RING finger protein unkempt homolog, zinc fingers 1-6, GST-SBP tag (UNK, Homo sapiens, UniProt Q9C0B0, residues 30-357)
All sequences stand within: GGGAGUUCUACAGUCCGACGAUC … CAACAGAGGAUUGAGCAUCA
Construct (chain): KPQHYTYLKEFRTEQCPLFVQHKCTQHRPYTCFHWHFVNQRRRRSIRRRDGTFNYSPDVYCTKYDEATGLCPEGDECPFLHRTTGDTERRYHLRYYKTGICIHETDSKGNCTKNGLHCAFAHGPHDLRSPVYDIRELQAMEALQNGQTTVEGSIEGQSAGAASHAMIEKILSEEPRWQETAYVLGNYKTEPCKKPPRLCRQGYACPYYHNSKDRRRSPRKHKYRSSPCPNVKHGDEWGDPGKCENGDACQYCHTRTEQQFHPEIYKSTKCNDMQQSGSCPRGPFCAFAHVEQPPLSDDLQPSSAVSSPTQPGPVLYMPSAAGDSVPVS
ACGCGGAACAUGGCGCGUUCCUAGAAGCCGUUUUCGGCAUCAGUAGGCGGCAGCGUGUGGACCCGGAGCGUGGGGGACGAGGAAGCAACCAACGCCGCUUCGUGUGGACAAGUGGAAAGG: 0.198 ratio
CCAAGUGGACUGUUUCUGGCCUCGAGUCCGCUGCUGCCCAGCAUACACUUCUGGAGCAGCCUCCGUCCUGUCGCCCCACUGAGUCCUGCCAGGCUGCAAGGGCCGAACACACUUUUCCAG: 0.122 ratio
AAGAAAAAGAAAAUGCCGAAGCCAAUCAAUGUAAGAGUAACUACAAUGGACGCUGAGCCCGAAUUUGCCAUCCAGCCCAAUACAACUGGCAAACAACUUUUUGACCAGGUUGUAAAAACA: 0.355 ratio
CAAGUAUUUUAAUUUAAGUUCAGUGAACUUUUUUGUAGCUGGGUUAAAUCUUUUUAUUUUCCGUAUGGCCUUAUGGCAAAGAACACUGUAUUAUUUUAAUAAUCACACGAUUGUGACGGA: 0.591 ratio
UCAUUUAUUAGAUACAAUAGCCAAAGAAUAAAGUAAAAACUCCUUUUUACCUUGCUGCCCAACCGGAAUCAGAUGACUUAAAUACUAGGCCUUACUAGGGUCUCUUGGCUUUGGAGUUUU: 13.6 ratio
ACCGCAGCUGCUGCGCCUAUGAUUGGCUAUCCCAUGCCAACAGGGUAUUCUCAAUAAGACUUCCGAAGUAUAUGUAAAUGUCUGUUUUUCAUAAUUGCUCUUUAUAUUGUGUGUUAUCAG: 0.281 ratio
UCAGCCAUUGGUGUGCACUCAUCUUUAGCACCAUUGGUGAAAAUUCUCGAGAGCUGUGGAACCGAGUCAAAGAUUGAGCCAGAAGUCAAUGACUCCCUGGGGGUUUACUGCAUUGAUGCC: 0.275 ratio
GAACAGGAGCAGCAUAGGCUGUUUGAGCUUUGGGGAAAUGAACUUUGCUUUUUAUAUUUAACCCGGAUACUUUUAUAUGAUGGGUGCUUUGAGUGUGAAUGCAGCAGGCUCUCUUGUUUC: 0.401 ratio
AACCAAGGCAUUGCUCCCGUCCAGGUCUGUACCAAUCUCUUGAUCAAGCAAGUGGUGGAAGCCGCUUGUGGCUCACAUCAUUCAAUGGCUCUGGCAGCUGAUGGAGAGGUGUUUGCUUGG: 0.0741 ratio
GAGUCUUCACCAACCACCUUACUUGCUACAAAGAAAAAUAUUGGACGAUUUCAUCCCUAUACCCGAUAUGAAAAUAUAACUUUCAAUUGCUGCAAUCACUGCCGGGGAGAACUGAUUGCC: 0.595 ratio
AUCACCCAGCUGAAUCUUAGCGGCUACAGAAAGAAUCUCCAGAAAUCAGAUCUCUCUACUUCCGUCCGAAGAUGCCCCAAUCUUGUCCAUCUAGACUUAAGUGAUAGUGUCAUGCUAAAG: 0.217 ratio

Sample 5 — technique: protein-binding microarray; molecule type: double-stranded DNA, one strand shown; matrix: in vitro; concentration: not given; direction: higher = stronger binding; quantity: E-score
Target: TATA-box-binding protein 1 (TBP1, Arabidopsis thaliana, UniProt P28147, residues 1-200, full length assumed)
Notes: k-mer, scored over probes, only values ≥0.25
Residues (chain): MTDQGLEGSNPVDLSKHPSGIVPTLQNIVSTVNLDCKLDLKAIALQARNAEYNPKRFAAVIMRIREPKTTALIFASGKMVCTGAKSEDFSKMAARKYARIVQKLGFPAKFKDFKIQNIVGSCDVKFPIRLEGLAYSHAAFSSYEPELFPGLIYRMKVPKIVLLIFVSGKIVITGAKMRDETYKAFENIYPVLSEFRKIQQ
TCATTAA: 0.284
CTATATC: 0.316
ATGTATA: 0.366
ATATAAG: 0.478
AGCATAT: 0.348
GTTTAAA: 0.396
TAACTTA: 0.267
AAAGTCA: 0.266
CTTAAAA: 0.378
AGTATAC: 0.278
TGTTAAA: 0.312
TAAATTA: 0.409
CGATTAA: 0.289
AAAATAA: 0.367
AATAAGT: 0.264
ATATCGA: 0.275
GCTTTTA: 0.373

Sample 6 — technique: protein-binding microarray; molecule type: double-stranded DNA, one strand shown; matrix: in vitro; concentration: 940 nM top; notes: 60-bp whole probe; added: salmon DNA 0.4 mg/ml; relative to: random background probes; direction: higher = stronger binding; quantity: fitted relative affinity; all sequences stand within: GCCTAGCAC … GTCTTGATTCGCTTGACGCTGCTG
Target: Interferon regulatory factor 5, full length, phosphomimetic (IRF5, Homo sapiens, UniProt Q13568-2, residues 1-514, S451D/S453D/S456D/S462D)
TTGGGACTGGGACTGGGTTAGTGCTAG: -0.245 z-score
TTAGGTCTCCCTCTCCTTTAGTGCTAG: 0.516 z-score
GACGATATCGGGACTAGAGACGTGCTA: -0.313 z-score
TTAGGTTACGGGACTGGGTTAGTGCTA: 0.192 z-score
TTAGGACTGCTACTGCTGTAGTGCTAG: -0.73 z-score
TCAAAAATGATGTTTTAGACTGTGCTA: -0.487 z-score
TCACTTCTCCTCTAGGTTACTGTGCTA: 1.04 z-score
TCAAAAAATGGAAATCTAACTGTGCTA: -0.15 z-score
TTAGGTATCGACTATCAGTTAGTGCTA: 5.48 z-score
TATTTTTTTGTAATCGAAATGTGCTAG: 0.344 z-score
AGACTTCTCCATTTTTCTAGGTGCTAG: 1.1 z-score
GACGATTTCAGTTCCGAAACGTGCTAG: 0.874 z-score
TTATATTTCAGTCTCGATTAGTGCTAG: 4.6 z-score
TCCTAATTCTCTTTTCACTTGTGCTAG: 2.23 z-score
CTAGATATCGGGACTGGATTAGTGCTA: -0.224 z-score
TTACGTATCCTTATCCTTTAGTGCTAG: 1.34 z-score
TCAGTTCTCAGCTTGGGACTGTGCTAG: 0.502 z-score

Excerpt of the above (sample 5):
GTTTAAA: 0.396
TAACTTA: 0.267
AAAGTCA: 0.266
CTTAAAA: 0.378
AGTATAC: 0.278
TGTTAAA: 0.312
TAAATTA: 0.409
CGATTAA: 0.289
AAAATAA: 0.367
AATAAGT: 0.264
